# Published values collected from several papers.
# Each numbered part is a random draw from the data of one study; scales do not carry over between parts.

# Study 1
# Target: RNA binding protein fox-1 homolog 2, RRM domain, GST-SBP tag (RBFOX2, Homo sapiens, UniProt O43251-10, residues 100-194)
# Method: RNA Bind-n-Seq
# Molecule type: RNA
# Sample: in vitro
# Concentration: 365 nM
# Setting: natural RNA segment, single round, ends assumed
# Relative to: no-protein control
# Direction: higher = stronger binding
# Shared flanks, not repeated: GGGAGUUCUACAGUCCGACGAUC … UGGAAUUCUCGGGUGCCAA
# Construct (chain): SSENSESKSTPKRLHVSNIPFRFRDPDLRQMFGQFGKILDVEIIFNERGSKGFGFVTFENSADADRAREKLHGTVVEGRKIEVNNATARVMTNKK
Sequence,RBNS enrichment (R)
GAUGCCUGCCAGGAAUGAGCAAGCUCUGUUGCUCGGGAGCCUCUUGUCACCUUCUUGGACUUAUUCCCCACCUGAUACCUUAUAGAGAAAAGUGUGAAUUCAGGUGGAGA,0.586
GAUGGUCUGUUUUGACAGAAACUGACAGGAAUCAAAACAAUCGAAUUUUGAAUUGAGUGAAGUGCAAUUUCAUUGGAUAGCUAAGUAUCUUUGUAAGAUAGAGAUUGUUG,0.47
CAUUGCACUGCUCGCAGCUCCCUGCUCAGACUUCACCCCAAGCUGAAGCCUCCAGAGGGACAGCAGGGACGAGCCACACUCAACCCCCCCCCUGCACAUCAGGUCUGAGA,0.351
GAAAUGAUGGCAAAACGUCAAACUCUUAUUUCAGAGCUUCAUGAAUUUAGUUAGACUAAACAUAAUUCUUUAAGUUCAACCUAAAGGGCUGAGAUCAAUAAAUUUAACAC,0.321
UCCCGGGGCAUGGUAAGCCUGAGUUUGCCCUAACACCUCACUUAUCAGCUCUAUUACGACCCUUCUCAUCCCUAUAGAAGAGGUUGCUAAGUAUCCACUUCCCUUUCUAU,0.399

# Study 2
# Target: Interferon regulatory factor 7, full length, phosphomimetic (IRF7, Homo sapiens, UniProt Q92985, residues 1-503, S101K/S471D/S472D/S475D/S476D/S477D/S483D/S484D/S487D)
# Method: protein-binding microarray
# Molecule type: double-stranded DNA, one strand shown
# Sample: in vitro
# Concentration: 250 nM
# Setting: 60-bp whole probe
# Added: salmon DNA 0.4 mg/ml
# Relative to: random background probes
# Direction: higher = stronger binding
# Shared flanks, not repeated: GCCTAGCAC … GTCTTGATTCGCTTGACGCTGCTG
# Construct (chain): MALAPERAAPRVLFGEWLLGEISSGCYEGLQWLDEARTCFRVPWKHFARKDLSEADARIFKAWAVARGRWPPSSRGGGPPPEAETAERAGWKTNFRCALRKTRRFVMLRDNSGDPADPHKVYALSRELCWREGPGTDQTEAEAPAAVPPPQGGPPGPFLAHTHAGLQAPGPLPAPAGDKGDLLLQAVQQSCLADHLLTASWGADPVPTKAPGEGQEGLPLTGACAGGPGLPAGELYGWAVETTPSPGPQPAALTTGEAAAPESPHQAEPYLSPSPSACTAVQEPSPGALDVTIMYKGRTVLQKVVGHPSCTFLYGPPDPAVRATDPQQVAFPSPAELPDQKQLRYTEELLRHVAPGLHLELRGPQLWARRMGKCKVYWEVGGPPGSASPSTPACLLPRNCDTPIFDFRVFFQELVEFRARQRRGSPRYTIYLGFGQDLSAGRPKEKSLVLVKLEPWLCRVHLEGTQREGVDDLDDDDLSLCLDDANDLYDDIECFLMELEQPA
Sequence,log fluorescence [z-score]
TCAAGTTTTTATTTTCTACTGTGCTAG,1.23
TTAGAAGTGAGACTGGATTAGTGCTAG,-0.177
TTTCTCTGCTCTTTTCAACAAGTGCTA,1.68
GACGGTTTCGGTTTCGAGACGTGCTAG,14.8
TTAAGTATCGGTTTCGGTTAGTGCTAG,10.9

# Other studies, line by line
# UNK zinc fingers 1-6, SBP tag: RING finger protein unkempt homolog, zinc fingers 1-6, SBP tag (UNK, Homo sapiens, UniProt Q9C0B0, residues 30-357)
# Chain of UniProt Q9C0B0 (30-357, looked up): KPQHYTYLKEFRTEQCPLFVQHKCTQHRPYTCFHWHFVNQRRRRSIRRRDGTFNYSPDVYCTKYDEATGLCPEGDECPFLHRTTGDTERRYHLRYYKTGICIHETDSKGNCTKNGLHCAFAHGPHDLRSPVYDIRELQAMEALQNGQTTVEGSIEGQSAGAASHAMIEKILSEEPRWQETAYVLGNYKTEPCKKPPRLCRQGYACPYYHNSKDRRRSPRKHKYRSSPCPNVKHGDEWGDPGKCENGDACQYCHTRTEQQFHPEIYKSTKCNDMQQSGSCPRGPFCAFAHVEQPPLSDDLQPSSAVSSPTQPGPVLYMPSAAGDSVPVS
Molecule,target,assay,system,conditions,how to read,quantity,value
GGGAGUUCUACAGUCCGACGAUCGUUAGGUCAUGACCCUUACAGGCUAGGUCAUGAUGCCUACAGGUUAGGGCAGGACCCCUAUAGAUUAGGCCAUGAUCCCUACAGACUAACUCCUGAUCCCUAUAGGAUGUCACCUAGACCCAACAGAGGAUUGAGCAUCA,"UNK zinc fingers 1-6, SBP tag",RNA Bind-n-Seq,"RNA, in vitro","100 nM, RNA with constant flanks, vertebrate orthologous sites, ends assumed","relative to: input RNA pool, higher = stronger binding",bound/input enrichment,0.788 ratio
"PhoQ, residues 284 288 289 292 302 303 SLCLSL","PhoP, residues 12 14 15 18 19 SPWRL (Escherichia coli, UniProt P23836)","Sort-seq, refers to: YFP reporter",E. coli,"PhoQ-PhoP variant library, added: 10 µM Mg2+","relative to: high Mg2+ state, higher = stronger signaling",fold induction,3.38
GGGAGUUCUACAGUCCGACGAUCCCUUCCUUUUUCUAUUUUUUUUCUUUCGUUCUUUCUUUUUUUCCUUUUUUUUCUUUUUUGUAGUUGUUGUUACCCACGCCAUUUUACGUCUCCUUCACUGAAGGGCUAGAGUUUUAACUUCAACAGAGGAUUGAGCAUCA,"UNK zinc fingers 1-6, SBP tag",RNA Bind-n-Seq,"RNA, in vitro","100 nM, RNA with constant flanks, vertebrate orthologous sites, ends assumed","relative to: input RNA pool, higher = stronger binding",bound/input enrichment,6.29 ratio

# A few entries again (study 1):
Sequence,RBNS enrichment (R)
GAUGCCUGCCAGGAAUGAGCAAGCUCUGUUGCUCGGGAGCCUCUUGUCACCUUCUUGGACUUAUUCCCCACCUGAUACCUUAUAGAGAAAAGUGUGAAUUCAGGUGGAGA,0.586
